{"data": "Measured values of several laboratories", "B1": "enzyme (Bacteroides thetaiotaomicron, UniProt Q8A947); chain MIKNIVFDFGGVIVDIDRDKAVQAFIKLGLADADTRLDKYHQTGIFQELEEGKLSADEFRKQLGDLCGRELTMEETKQAWLGFFNEVDLRKLDYILGLRKSYHVYLLSNTNPFVMSWACSPEFSSEGKPLNDYCDKLYLSYQLGHTKPAPEIFDFMIKDSHVIPSETLFVDDGSSNIHIGKELGFETFQPENGADWRQELTVILNS", "B2": "enzyme (Listeria monocytogenes, UniProt Q8Y7B6); chain MSFDVLTINPGSTSTKLAVYQGDKVLFEETVRHTMQELADFNNVQEQFDFRWQVLRRVMDAHGYDVKKLQAVVGRGGLLRPVAGGTYMVTEKMIDDLKENKYGEHASNLGAMLAKKLADELTIPSFIVDPVVVDEMQEIARISGNAFVTRKSIFHALNHKAAGRKIAKELGKDYEKMNFVIAHLGGGISVAAHRQGKAVDVNNALDGDGPFSPERSGSLPMNDFLEACFSGKWTKRELHELIVGRGGMISYLGTNSMLEVEAKVQAGEEKAIEAFDAMAYQVSKEIGACSVVLQGKVDAIILTGGLARSELFTSKIIEQTNWITSVIIEPGEDELEALNSGVQRVLAGLEKEKEY", "note": "Protocols differ between the studies behind these lines. Numbers after ± are the reported error.", "UniProt P11388, sequence (whole entry, looked up)": "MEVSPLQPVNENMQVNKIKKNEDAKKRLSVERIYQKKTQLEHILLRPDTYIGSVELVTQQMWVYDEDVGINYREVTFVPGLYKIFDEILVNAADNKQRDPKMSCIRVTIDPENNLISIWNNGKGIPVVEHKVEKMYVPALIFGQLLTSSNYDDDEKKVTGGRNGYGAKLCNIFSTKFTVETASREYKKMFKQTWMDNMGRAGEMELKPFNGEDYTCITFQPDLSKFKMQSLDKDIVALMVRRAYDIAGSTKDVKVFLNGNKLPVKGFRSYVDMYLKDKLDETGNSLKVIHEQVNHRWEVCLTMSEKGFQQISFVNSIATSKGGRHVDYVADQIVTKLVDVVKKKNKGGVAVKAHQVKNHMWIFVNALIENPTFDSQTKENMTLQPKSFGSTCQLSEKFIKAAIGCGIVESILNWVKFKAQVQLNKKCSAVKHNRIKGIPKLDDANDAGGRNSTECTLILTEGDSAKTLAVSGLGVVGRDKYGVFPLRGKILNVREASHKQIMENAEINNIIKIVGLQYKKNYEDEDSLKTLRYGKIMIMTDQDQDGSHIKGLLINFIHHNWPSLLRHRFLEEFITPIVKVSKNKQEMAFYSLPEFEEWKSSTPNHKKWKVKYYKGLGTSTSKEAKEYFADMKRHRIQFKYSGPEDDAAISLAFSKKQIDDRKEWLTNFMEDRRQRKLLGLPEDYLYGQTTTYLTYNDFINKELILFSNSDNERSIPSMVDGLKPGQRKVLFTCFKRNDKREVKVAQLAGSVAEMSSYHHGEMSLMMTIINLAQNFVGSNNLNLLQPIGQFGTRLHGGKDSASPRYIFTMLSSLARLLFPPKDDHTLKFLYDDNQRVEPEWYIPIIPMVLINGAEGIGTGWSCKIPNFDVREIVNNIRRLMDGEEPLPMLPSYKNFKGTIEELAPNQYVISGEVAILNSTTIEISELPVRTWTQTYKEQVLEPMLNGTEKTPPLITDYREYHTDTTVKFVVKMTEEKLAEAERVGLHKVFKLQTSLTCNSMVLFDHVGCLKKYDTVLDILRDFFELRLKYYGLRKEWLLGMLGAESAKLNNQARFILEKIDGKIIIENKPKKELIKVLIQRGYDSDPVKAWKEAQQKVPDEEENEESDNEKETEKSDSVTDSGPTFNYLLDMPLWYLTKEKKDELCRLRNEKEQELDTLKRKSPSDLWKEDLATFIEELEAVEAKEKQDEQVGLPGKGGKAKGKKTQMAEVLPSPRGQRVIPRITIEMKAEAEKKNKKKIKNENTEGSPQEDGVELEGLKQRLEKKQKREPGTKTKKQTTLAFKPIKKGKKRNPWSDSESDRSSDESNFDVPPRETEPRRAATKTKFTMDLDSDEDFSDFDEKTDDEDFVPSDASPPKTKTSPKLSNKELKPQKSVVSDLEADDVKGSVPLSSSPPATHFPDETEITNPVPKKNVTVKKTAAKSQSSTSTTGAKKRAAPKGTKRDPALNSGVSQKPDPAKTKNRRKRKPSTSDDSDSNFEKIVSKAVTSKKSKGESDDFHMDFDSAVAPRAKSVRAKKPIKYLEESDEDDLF"}
{"Substance": "protein (Bacteroides thetaiotaomicron, UniProt Q8A711)", "target or system": "C=C(OP(=O)(O)O)C(=O)O", "test": "steady-state kinetics", "conditions": "pH 7.5, 25 °C, with: mannose 6-phosphate 3 mM", "measurement": "Km", "value": "110 µM"}
{"Substance": "Fc1ccccc1Cc1nc(-c2nc(C(F)(F)F)n[nH]2)cn2ccnc12", "test system": "healthy human subjects, both sexes", "conditions": "oral, 10 mg, fasted", "measurement": "subjects with eye TEAEs", "value": "0%"}
{"Substance": "COc1cc([C@@H]2c3cc4c(cc3[C@@H](O[C@@H]3O[C@@H]5CO[C@@H](C)O[C@H]5[C@H](O)[C@H]3O)[C@H]3COC(=O)[C@H]23)OCO4)cc(OC)c1O", "target or system": "DNA topoisomerase 2-alpha (TOP2A, Homo sapiens, UniProt P11388)", "test": "DNA cleavage", "conditions": "12.5 µM, replicate 1", "measurement": "linear DNA", "value": "12.7%"}
{"Substance": "COC(=O)Nc1c(N)nc(-c2nn(Cc3ccccc3F)c3ncc(F)cc23)nc1N", "test system": "healthy male humans, plasma", "conditions": "oral, 5 mg, single dose, fasting, with: magnesium/aluminium hydroxide 10 mL", "scale": "reference: with over without co-treatment", "measurement": "AUC ratio", "value": 0.729}
{"Substance": "B1 (enzyme)", "target or system": "Nc1c(NC[C@H](O)[C@H](O)[C@H](O)COP(=O)(O)O)[nH]c(=O)[nH]c1=O", "test": "steady-state kinetics", "conditions": "pH 7.5, 25 °C", "measurement": "kcat", "value": "0.016 ± 0.001 s⁻¹"}
{"Substance": "B2 (enzyme)", "target or system": "CCC(CC)C(=O)O", "test": "steady-state kinetics", "conditions": "pH 7.5, 37 °C", "measurement": "kcat", "value": "0.112 ± 0.0283 s⁻¹"}
{"Substance": "N#CCC1CCN(c2nc(Nc3ccc(N4CCC(O)CC4)cc3)c3c(=O)[nH]ncc3n2)CC1", "test": "vs placebo, Olink multiplex", "test system": "human, serum", "conditions": "80 mg, day 29, unit not given", "scale": "reference: placebo", "measurement": "GIF level difference", "value": 1.61}
{"Substance": "HFRIGCRHSRIG", "test": "measured: cytochrome c, AIF", "test system": "peptide, purified mitochondria", "conditions": "1 µM, 30 min", "measurement": "intermembrane protein release", "value": "increased"}
{"note": "A few entries again:"}
{"Substance": "B1 (enzyme)", "target or system": "Nc1c(NC[C@H](O)[C@H](O)[C@H](O)COP(=O)(O)O)[nH]c(=O)[nH]c1=O", "test": "steady-state kinetics", "conditions": "pH 7.5, 25 °C", "measurement": "kcat", "value": "0.016 ± 0.001 s⁻¹"}
